Assay results gathered from unrelated publications.
Several values in a cell are separate wells, animals, samples, runs or records. Numbers after ± are the reported error.
UniProt P20813, sequence (whole entry, looked up): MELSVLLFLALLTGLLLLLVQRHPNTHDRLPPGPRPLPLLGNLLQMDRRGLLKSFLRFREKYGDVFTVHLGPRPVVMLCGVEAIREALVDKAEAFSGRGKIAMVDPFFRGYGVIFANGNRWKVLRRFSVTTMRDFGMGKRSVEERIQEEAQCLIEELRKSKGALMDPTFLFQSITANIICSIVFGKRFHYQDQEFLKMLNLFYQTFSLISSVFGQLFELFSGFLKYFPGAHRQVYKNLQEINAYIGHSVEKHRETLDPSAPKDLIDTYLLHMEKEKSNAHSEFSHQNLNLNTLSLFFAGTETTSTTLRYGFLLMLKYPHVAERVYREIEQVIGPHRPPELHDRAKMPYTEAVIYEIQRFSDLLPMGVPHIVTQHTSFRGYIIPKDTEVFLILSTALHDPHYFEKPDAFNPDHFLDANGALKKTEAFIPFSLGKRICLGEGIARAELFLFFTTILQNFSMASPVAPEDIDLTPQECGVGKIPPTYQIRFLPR

Cc1cc(-c2ccc3ccccc3c2)nnc1NCCN1CCN(C)CC1 — half-life (Cytochrome P450 2B6 (CYP2B6, Homo sapiens, UniProt P20813); substrate; recombinant enzyme; 100 nM): > 1 h
O=C1NC2(CC2)COc2ncc(F)cc2[C@H]2COCCN2c2ccn3ncc1c3n2 — creatine kinase activity (Sprague-Dawley rat, female, serum; oral, 5 mg/kg/day, 4 weeks daily, end of treatment): 465 ± 133 U/L
CC[C@H](C)[C@H](NC(=O)[C@H](C)NC(=O)[C@H](CCCCN)NC(=O)[C@H](CC(C)C)NC(=O)[C@@H](N)Cc1ccccc1)C(=O)N[C@@H](CCCCN)C(=O)N[C@@H](CCCCN)C(=O)N[C@@H](Cc1ccccc1)C(=O)NCC(=O)N[C@@H](CCCCN)C(=O)N[C@@H](CCC(=O)O)C(=O)N[C@@H](Cc1ccccc1)C(=O)N[C@@H](CCCCN)C(=O)N[C@@H](CCCCN)C(=O)N[C@H](C(=O)NCC(=O)N[C@@H](C)C(=O)N[C@@H](CCCCN)C(=O)N[C@@H](CC(C)C)C(=O)N[C@@H](CCCCN)C(=O)O)[C@@H](C)CC — hemolysis (human red blood cells; 0.5 mg/L, 1 h, mean of replicates): 0.204%
CC[C@H](C)[C@H](NC(=O)[C@H](CCCCN)NC(=O)CNC(=O)[C@H](CC(C)C)NC(=O)[C@H](Cc1ccccc1)NC(=O)[C@H](CCCCN)NC(=O)[C@H](CO)NC(=O)[C@H](Cc1ccccc1)NC(=O)[C@H](Cc1c[nH]c2ccccc12)NC(=O)[C@H](CCC(N)=O)NC(=O)[C@@H](NC(=O)[C@H](Cc1ccccc1)NC(=O)CCCCCNC(=O)CN1CCN(CC(=O)O)CCN(CC(=O)O)CCN(CC(=O)O)CC1)C(C)C)C(=O)N[C@@H](CCC(=O)O)C(=O)N1CCC[C@H]1C(=O)N[C@@H](CC(=O)O)C(=O)N[C@H](C(=O)N[C@@H](CO)C(=O)N[C@@H](CCC(N)=O)C(=O)N[C@H](C(=O)N[C@@H](CCC(N)=O)C(=O)N[C@@H](CC(=O)O)C(=O)N1CCC[C@H]1C(=O)N[C@@H](CC(N)=O)C(=O)N[C@@H](CC(=O)O)C(=O)N[C@@H](CCC(N)=O)C(=O)N[C@@H](Cc1ccc(O)cc1)C(=O)N[C@@H](CCC(=O)O)C(=O)N1CCC[C@H]1C(=O)N[C@@H](Cc1ccccc1)C(=O)O)C(C)C)C(C)C [copper-64 labelled] — tissue uptake (GZMB-/- mice, CT26 tumour-bearing, bone; 2 h, vehicle-treated): 0.48 ± 0.09 %ID/g
COC(=O)[C@@H](NC(=O)c1nn(Cc2ccc(F)cc2)c2cc(OCCCCNC(=N)N)ccc12)C(C)(C)C — Kp,uu, brain to plasma, unbound partition coefficient (mouse; intraperitoneal, 3 mg/kg, 0.5 h; relative to: brain over plasma): 0.0012
N#[11C]c1ccc(-c2csc(NN=C3CCCC3)n2)cc1 — radioactivity uptake (C57BL/6 mice, male, heart; intravenous, 3 MBq, 5 min): 4.7 ± 0.38 %ID/g
CCCCCCCCCCCCCCCC(=O)N[C@@H](CCC(=O)NCCOCCOCCC(=O)NCCOCCOCCC(=O)NCCCC[C@H](NC(=O)[C@H](CC(=O)O)NC(=O)[C@H](CC(C)C)NC(=O)[C@H](Cc1ccc(O)cc1)NC(=O)[C@H](CCCCN)NC(=O)[C@H](CO)NC(=O)[C@H](Cc1ccc(O)cc1)NC(=O)[C@H](CC(=O)O)NC(=O)[C@H](CO)NC(=O)[C@@H](NC(=O)[C@H](Cc1ccccc1)NC(=O)[C@@H](NC(=O)CNC(=O)[C@H](CCC(N)=O)NC(=O)[C@@H](CO)NC(=O)[C@@H](N)Cc1c[nH]cn1)[C@@H](C)O)[C@@H](C)O)C(=O)N[C@@H](CCCNC(=N)N)C(=O)N[C@@H](CCCNC(=N)N)C(=O)N[C@@H](C)C(=O)N[C@@H](CCC(N)=O)C(=O)N[C@@H](CC(=O)O)C(=O)N[C@@H](Cc1ccccc1)C(=O)N[C@H](C(=O)N[C@@H](CCC(N)=O)C(=O)N[C@@H](Cc1c[nH]c2ccccc12)C(=O)N[C@@H](CC(C)C)C(=O)N[C@@H](CC(C)C)C(=O)N[C@@H](CC(N)=O)C(=O)N[C@H](C(=O)NCC(=O)NCC(=O)N1CCC[C@H]1C(=O)N[C@@H](CO)C(=O)N[C@@H](CO)C(=O)NCC(=O)N[C@@H](C)C(=O)N1CCC[C@H]1C(=O)N1CCC[C@H]1C(=O)N1CCC[C@H]1C(=O)N[C@@H](CO)C(N)=O)[C@@H](C)O)C(C)C)C(=O)O — serum enzyme activity (refers to: AST; rhesus monkey, female; subcutaneous, 20 µg/kg once daily, 28 days): 37.1 ± 5.9 U/L
Cn1nc(NS(C)(=O)=O)c2c(Cl)ccc(-n3c([C@H](Cc4cc(F)cc(F)c4)NC(=O)Cn4nc(C(F)F)c5c4C(F)(F)[C@@H]4C[C@H]54)nc4nc(OCCC(F)(F)F)ccc4c3=O)c21 — tmax (human, plasma; oral, 1875 mg single dose, powder in bottle, median): 9 h
CC(C)C[C@@H](NC(=O)[C@@H](CCCNC(=N)N)NC(=O)[C@@H](Cc1c[nH]cn1)NC(=O)[C@@H](Cc1c[nH]c2ccccc12)NC(=O)[C@@H](Cc1c[nH]cn1)NC(=O)[C@@H](Cc1ccccc1)NC(=O)[C@H](NC(=O)[C@@H](Cc1ccc(O)cc1)NC(=O)CNC(=O)CNC(=O)CCOCCOCCOCCNC(=O)CN1CCN(CC(=O)O)CCN(CC(=O)O)CC1)[C@H](C)O)C(=O)N[C@H](CC(N)=O)C(=O)N1CCC[C@@H]1C(=O)O [gallium-68 labelled] — tissue uptake (C57BL/6 mice, male, blood; intravenous, 1.85 MBq, 60 min, added: GP12 blocking): 1.25 ± 0.25 %ID/g
CCN(CC)CCOc1ccc(-c2nnn(Cc3ccc(OC)cc3)c2N)cc1 — mean blood pressure increase (beagle dog; oral, at least 40 mg/kg): ≤ 12%
COc1ccccc1-c1n[nH]c2nc(NC3CCN(C(=O)Cc4ccc(F)cc4F)CC3)ncc12 — relative abundance (bead binding, competition bead pull-down, refers to: LMJF.36.4420; Leishmania donovani axenic amastigote extract; 10 µM; relative to: vehicle): 1.26
CCCCC(CC)COC(=O)CC(C(=O)OCC(CC)CCCC)S(=O)(=O)O.CCCSc1ccc2[nH]c(NC(=O)OC)nc2c1 (centres unmarked) — solubility (buffer; 24 h, pH 1.2, room temperature, equilibrium): 7.3 ± 2.5 µg/mL
CC(C)C[C@H](NC(=O)[C@H](Cc1ccc(O)cc1)NC(=O)[C@H](Cc1c[nH]cn1)NC(=O)[C@H](CC(N)=O)NC(=O)[C@H](CC(C)C)NC(=O)[C@H](C)NC(=O)[C@H](CC(C)C)NC(=O)CNC(=O)CNC(=O)[C@@H](NC(=O)[C@@H](NC(=O)[C@H](CCCCN)NC(=O)CNC(=O)[C@@H](NC(=O)[C@H](CCCCN)NC(=O)[C@H](CCCCN)NC(=O)[C@H](C)NC(=O)[C@H](CCCCN)NC(=O)[C@H](CCCNC(=N)N)NC(=O)[C@H](Cc1ccccc1)NC(=O)[C@H](Cc1c[nH]c2ccccc12)NC(=O)[C@H](CC(=O)O)NC(=O)[C@H](CCCCN)NC(=O)[C@H](Cc1c[nH]c2ccccc12)NC(=O)CN)C(C)C)[C@@H](C)O)C(C)C)C(N)=O — chronic toxic concentration (zebrafish embryos 4 hpf, E3 medium; 24 h): 5 µM
CC(C)[C@H](NC(=O)[C@@H](NC(=O)[C@H](CCCNC(=N)N)NC(=O)[C@H](CCCNC(=N)N)NC(=O)[C@H](CCCNC(=N)N)NC(=O)[C@H](CCC(N)=O)NC(=O)[C@H](CCCNC(=N)N)NC(=O)[C@H](CCCNC(=N)N)NC(=O)[C@H](CCCCN)NC(=O)[C@H](CCCCN)NC(=O)[C@H](CCCNC(=N)N)NC(=O)CN)[C@@H](C)O)C(=O)N[C@H](C(=O)N[C@@H](CO)C(=O)N1CCC[C@H]1C(=O)O)[C@@H](C)O — organ weight (ICR mice, male, spleen; intranasal, 5 mg/kg daily, 4 weeks): 0.094 ± 0.022 g
CSCC[C@H](N)C(=O)N[C@@H](C)C(=O)N[C@@H](Cc1c[nH]c2ccccc12)C(=O)N[C@@H](Cc1c[nH]cn1)C(=O)N[C@@H](CC(=O)O)C(=O)N[C@@H](CC(=O)O)C(=O)N[C@@H](CCC(=O)O)C(=O)N[C@@H](CCC(=O)O)C(=O)N[C@@H](Cc1ccccc1)C(=O)N[C@@H](C)C(=O)N[C@@H](CCCNC(=N)N)C(=O)N[C@@H](CCCNC(=N)N)C(=O)N[C@@H](CCCNC(=N)N)C(=O)N[C@@H](CCCNC(=N)N)C(=O)NCCCCCC(=O)NCCCCC(NC(=O)CCCCCNC(=O)[C@H](CCCNC(=N)N)NC(=O)[C@H](CCCNC(=N)N)NC(=O)[C@H](CCCNC(=N)N)NC(=O)[C@H](CCCNC(=N)N)NC(=O)[C@H](C)NC(=O)[C@H](Cc1ccccc1)NC(=O)[C@H](CCC(=O)O)NC(=O)[C@H](CCC(=O)O)NC(=O)[C@H](CC(=O)O)NC(=O)[C@H](CC(=O)O)NC(=O)[C@H](Cc1c[nH]cn1)NC(=O)[C@H](Cc1c[nH]c2ccccc12)NC(=O)[C@H](C)NC(=O)[C@@H](N)CCSC)C(=O)NCCCCC(NC(=O)C(CCCCNC(=O)CCCCCNC(=O)[C@H](CCCNC(=N)N)NC(=O)[C@H](CCCNC(=N)N)NC(=O)[C@H](CCCNC(=N)N)NC(=O)[C@H](CCCNC(=N)N)NC(=O)[C@H](C)NC(=O)[C@H](Cc1ccccc1)NC(=O)[C@H](CCC(=O)O)NC(=O)[C@H](CCC(=O)O)NC(=O)[C@H](CC(=O)O)NC(=O)[C@H](CC(=O)O)NC(=O)[C@H](Cc1c[nH]cn1)NC(=O)[C@H](Cc1c[nH]c2ccccc12)NC(=O)[C@H](C)NC(=O)[C@@H](N)CCSC)NC(=O)CCCCCNC(=O)[C@H](CCCNC(=N)N)NC(=O)[C@H](CCCNC(=N)N)NC(=O)[C@H](CCCNC(=N)N)NC(=O)[C@H](CCCNC(=N)N)NC(=O)[C@H](C)NC(=O)[C@H](Cc1ccccc1)NC(=O)[C@H](CCC(=O)O)NC(=O)[C@H](CCC(=O)O)NC(=O)[C@H](CC(=O)O)NC(=O)[C@H](CC(=O)O)NC(=O)[C@H](Cc1c[nH]cn1)NC(=O)[C@H](Cc1c[nH]c2ccccc12)NC(=O)[C@H](C)NC(=O)[C@@H](N)CCSC)C(N)=O (some centres unmarked) — tissue distribution (C57BL/6 mouse female, lungs; dose not given, 3 h; relative to: total): 2.32% and 2.15% and 1.95%
CSCC[C@H](NC(=O)CNC(=O)[C@H](CCCCN)NC(=O)[C@H](CC(C)C)NC(=O)[C@@H]1CCCN1C(=O)[C@H](CO)NC(=O)[C@H](Cc1c[nH]cn1)NC(=O)[C@H](Cc1c[nH]c2ccccc12)NC(=O)[C@H](CCCNC(=N)N)NC(=O)[C@H](CC(C)C)NC(=O)[C@H](CCCNC(=N)N)NC(=O)[C@H](Cc1c[nH]c2ccccc12)NC(=O)[C@H](CS)NC(=O)CCCCCNC(=O)CN1CCN(CC(=O)O)CCN(CC(=O)O)CCN(CC(=O)O)CC1)C(=O)O [copper-64 labelled] — tumour-to-blood ratio (C57BL/6J mice, B16-F10 tumour; intravenous, 1.85 MBq, 30 h; relative to: tumour over blood): 3.1
CCCCCCCCCCCCCC(=O)N[C@H](CCN)C(=O)N[C@@H]1C(=O)N[C@@H](CCN)C(=O)N[C@@H](CC(C)C)C(=O)N[C@@H](CCN)C(=O)N[C@H](Cc2ccccc2)C(=O)N[C@@H](CC(C)C)C(=O)N[C@@H](CCN)C(=O)N[C@H](CCN)C(=O)N[C@@H](C(C)C)C(=O)N[C@@H](CC(=O)O)C(=O)O[C@@H]1C — AUC(0-inf) (rat, plasma; intravenous, 5 mg/kg): 56700 ng·h/mL
CN1Cc2cc(Cl)ccc2-n2c(nnc2C2CCN(c3cccc([18F])n3)CC2)C1 — tissue uptake (C57BL/6 mouse male, kidney; intravenous, 3.7 MBq, 5 min): 11.8 ± 1.13 %ID/g
NC1CCN(C(=O)Oc2ccc(C3CCCC4(C3)OOC3(O4)C4CC5CC(C4)CC3C5)cc2)CC1 (racemic) — clearance (male mouse, plasma; intravenous, 10 mg/kg): 147 mL/min/kg
CS(C)(=O)=Nc1ccc(-c2ccc(-c3nc4cc(O[C@@H]5CO[C@H]6[C@@H]5OC[C@H]6O)[nH]c4cc3F)cc2)cc1 — inhibition (ABL1 (Homo sapiens, UniProt P00519, Y253F); enzyme activity, inhibitor; 10 µM): -13%

Some of these lines once more:
CCCCC(CC)COC(=O)CC(C(=O)OCC(CC)CCCC)S(=O)(=O)O.CCCSc1ccc2[nH]c(NC(=O)OC)nc2c1 (centres unmarked) — solubility (buffer; 24 h, pH 1.2, room temperature, equilibrium): 7.3 ± 2.5 µg/mL
CC(C)C[C@H](NC(=O)[C@H](Cc1ccc(O)cc1)NC(=O)[C@H](Cc1c[nH]cn1)NC(=O)[C@H](CC(N)=O)NC(=O)[C@H](CC(C)C)NC(=O)[C@H](C)NC(=O)[C@H](CC(C)C)NC(=O)CNC(=O)CNC(=O)[C@@H](NC(=O)[C@@H](NC(=O)[C@H](CCCCN)NC(=O)CNC(=O)[C@@H](NC(=O)[C@H](CCCCN)NC(=O)[C@H](CCCCN)NC(=O)[C@H](C)NC(=O)[C@H](CCCCN)NC(=O)[C@H](CCCNC(=N)N)NC(=O)[C@H](Cc1ccccc1)NC(=O)[C@H](Cc1c[nH]c2ccccc12)NC(=O)[C@H](CC(=O)O)NC(=O)[C@H](CCCCN)NC(=O)[C@H](Cc1c[nH]c2ccccc12)NC(=O)CN)C(C)C)[C@@H](C)O)C(C)C)C(N)=O — chronic toxic concentration (zebrafish embryos 4 hpf, E3 medium; 24 h): 5 µM
CC(C)[C@H](NC(=O)[C@@H](NC(=O)[C@H](CCCNC(=N)N)NC(=O)[C@H](CCCNC(=N)N)NC(=O)[C@H](CCCNC(=N)N)NC(=O)[C@H](CCC(N)=O)NC(=O)[C@H](CCCNC(=N)N)NC(=O)[C@H](CCCNC(=N)N)NC(=O)[C@H](CCCCN)NC(=O)[C@H](CCCCN)NC(=O)[C@H](CCCNC(=N)N)NC(=O)CN)[C@@H](C)O)C(=O)N[C@H](C(=O)N[C@@H](CO)C(=O)N1CCC[C@H]1C(=O)O)[C@@H](C)O — organ weight (ICR mice, male, spleen; intranasal, 5 mg/kg daily, 4 weeks): 0.094 ± 0.022 g
